Experimental data gathered from unrelated publications.
Numbered parts are unrelated; each lists some results of a single study. Changes are numbered by the printed parent chain.

Block 1
Target: Histone acetyltransferase KAT6A, winged helix 1, GST fusion (KAT6A, Homo sapiens, UniProt Q92794, residues 1-85)
Technique: protein binding microarray
Form: double-stranded DNA, one strand shown
Sample: in vitro
Concentration: not given
Setting: 8-mer, flanks averaged, mean of 2 arrays, mostly near background
Reference: not given
Reading: higher = stronger binding
Residues (chain): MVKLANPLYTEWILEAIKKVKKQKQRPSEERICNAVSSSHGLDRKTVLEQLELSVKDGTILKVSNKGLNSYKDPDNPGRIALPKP
With `ACACTAAC` the E-score was 0.0258.
For `AATCATGA`, the E-score was -0.195.
The E-score of `AGAGCTCG` is reported as 0.00524.
`TCGCTAAA` gave an E-score of 0.0321.
For `GAGGGCAC`, the E-score was -0.196.
`GAGTTTGA` has an E-score of -0.167.
`ACGCTGAC` has an E-score of 0.00617.
The E-score of `GGATAATA` is reported as -0.0864.
`AGAATACG` has an E-score of 0.149.
`AGCGGGCA` has an E-score of 0.256.
With `AGGTGGCC` the E-score was -0.182.
`CCGGGAGC` has an E-score of 0.247.
The E-score of `GAAAAGCC` is reported as 0.131.
For `CATGACAA`, the E-score was -0.212.
`GCATCGGA` gave an E-score of 0.148.

Block 2
Target: CCNF, cyclin fold, Cln2 fusion (human)
Technique: yeast growth competition, sequencing
Sample: yeast
Setting: strong parent motif
Reference: not given
Reading: higher = stronger binding
Parent: E2F1 docking peptide (human); PPVKRRLDFETDH; partner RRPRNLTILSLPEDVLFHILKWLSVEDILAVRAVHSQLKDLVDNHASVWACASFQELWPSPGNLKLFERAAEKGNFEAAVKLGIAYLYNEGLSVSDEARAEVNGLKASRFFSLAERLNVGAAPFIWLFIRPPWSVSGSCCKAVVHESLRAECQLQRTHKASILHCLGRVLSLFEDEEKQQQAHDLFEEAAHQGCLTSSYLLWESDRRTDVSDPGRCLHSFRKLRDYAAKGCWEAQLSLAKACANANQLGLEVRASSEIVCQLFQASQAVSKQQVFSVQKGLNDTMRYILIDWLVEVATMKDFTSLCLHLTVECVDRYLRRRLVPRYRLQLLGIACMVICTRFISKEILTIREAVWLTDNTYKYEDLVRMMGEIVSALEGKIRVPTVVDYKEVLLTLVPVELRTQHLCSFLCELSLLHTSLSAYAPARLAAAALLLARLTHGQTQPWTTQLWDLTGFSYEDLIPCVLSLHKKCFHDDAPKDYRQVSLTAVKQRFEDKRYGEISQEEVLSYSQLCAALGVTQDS
`R5D` — result for “normalised enrichment score”: -0.176.
Under “normalised enrichment score”, `R5M` is recorded as 1.5.
`K4C` — result for “normalised enrichment score”: 6.65.
Under “normalised enrichment score”, `R6A` is recorded as 7.03.
Under “normalised enrichment score”, `F9K` is recorded as -0.0419.
`V3C`: “normalised enrichment score” 6.76.
Under “normalised enrichment score”, `P2I` is recorded as 7.81.
Under “normalised enrichment score”, `E10S` is recorded as 7.7.
`P2N` — result for “normalised enrichment score”: 7.83.
`L7F` — result for “normalised enrichment score”: 0.199.
Under “normalised enrichment score”, `R6P` is recorded as 4.41.
For `P2F`, “normalised enrichment score” read 7.83.
`E10Y` — result for “normalised enrichment score”: 8.19.
Under “normalised enrichment score”, `P2R` is recorded as 8.12.
`L7M`: “normalised enrichment score” 1.22.

Block 3
Target: Prothrombin, mature alpha-thrombin (F2, Homo sapiens, UniProt P00734)
Technique: aptamer microarray, sandwich
Form: DNA with 2'F-ANA
Sample: in vitro
Concentration: 200 nM
Setting: whole 15-mer aptamer, many near background
With: Cy3 exosite-II aptamer, 400 nM
Reading: higher = stronger binding
Oligonucleotide: GGTTGGTGTGGTTGG
`2'F-ANA at 1 3 4 5 7 8 10 11 12 13`: “mean fluorescence intensity” 52.2 a.u.
`2'F-ANA at 1 3 5 6 7 8 12 14` — result for “mean fluorescence intensity”: 49.7 a.u.
`2'F-ANA at 2 3 6 8 9 12 15` — result for “mean fluorescence intensity”: 1020 a.u.
Under “mean fluorescence intensity”, `2'F-ANA at 2 3 4 5 7 8 11 14` is recorded as 56.2 a.u.
`2'F-ANA at 2 4 7 8 12` — result for “mean fluorescence intensity”: 763 a.u.
For `2'F-ANA at 1 5 6 9 11 13 14 15`, “mean fluorescence intensity” read 58 a.u.
For `2'F-ANA at 1 3 6 7 11 13 15`, “mean fluorescence intensity” read 190 a.u.
`2'F-ANA at 2 6 8 9 10 15` — result for “mean fluorescence intensity”: 117 a.u.
`2'F-ANA at 1 3 5 8 9 10 12 14`: “mean fluorescence intensity” 46.9 a.u.
`2'F-ANA at 1 5 6 7 10 11 12 14`: “mean fluorescence intensity” 46.1 a.u.

Further values, each from its own experiment
With `PhoQ, residues 284 288 289 292 302 303 SACGEM` the fold induction was 15.6 (PhoP, residues 12 14 15 18 19 GQALL (Escherichia coli, UniProt P23836); Sort-seq, refers to: YFP reporter; E. coli; PhoQ-PhoP variant library, with: 10 µM Mg2+; reference: high Mg2+ state, higher = stronger signaling).
